Published values pooled from the literature.
A part holds a random share of what one study measured. “And” joins repeats or separate records; there may be more than shown.
Chain of UniProt P33981 (whole entry, looked up): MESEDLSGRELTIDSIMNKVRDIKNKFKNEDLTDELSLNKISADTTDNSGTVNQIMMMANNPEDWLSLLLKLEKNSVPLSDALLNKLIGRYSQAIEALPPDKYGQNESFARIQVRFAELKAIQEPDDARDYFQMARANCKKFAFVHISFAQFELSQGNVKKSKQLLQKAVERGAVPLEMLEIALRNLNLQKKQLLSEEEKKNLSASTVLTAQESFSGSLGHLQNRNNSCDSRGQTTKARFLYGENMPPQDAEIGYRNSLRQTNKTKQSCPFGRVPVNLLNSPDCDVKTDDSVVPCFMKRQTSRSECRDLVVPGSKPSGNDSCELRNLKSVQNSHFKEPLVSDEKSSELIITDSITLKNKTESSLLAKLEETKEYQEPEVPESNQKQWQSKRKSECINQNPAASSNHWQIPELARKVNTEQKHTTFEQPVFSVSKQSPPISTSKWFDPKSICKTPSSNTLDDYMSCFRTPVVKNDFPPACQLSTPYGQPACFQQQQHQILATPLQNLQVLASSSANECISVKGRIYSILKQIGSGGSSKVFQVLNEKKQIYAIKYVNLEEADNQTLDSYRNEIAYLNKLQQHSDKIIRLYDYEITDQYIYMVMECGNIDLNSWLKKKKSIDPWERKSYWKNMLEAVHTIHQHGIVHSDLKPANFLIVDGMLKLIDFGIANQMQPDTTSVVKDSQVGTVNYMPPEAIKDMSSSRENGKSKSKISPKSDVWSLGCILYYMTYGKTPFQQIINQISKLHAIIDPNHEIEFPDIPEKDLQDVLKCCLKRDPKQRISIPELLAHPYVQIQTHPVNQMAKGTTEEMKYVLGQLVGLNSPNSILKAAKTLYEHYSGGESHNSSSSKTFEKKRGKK
Chain of UniProt Q9UHD2 (whole entry, looked up): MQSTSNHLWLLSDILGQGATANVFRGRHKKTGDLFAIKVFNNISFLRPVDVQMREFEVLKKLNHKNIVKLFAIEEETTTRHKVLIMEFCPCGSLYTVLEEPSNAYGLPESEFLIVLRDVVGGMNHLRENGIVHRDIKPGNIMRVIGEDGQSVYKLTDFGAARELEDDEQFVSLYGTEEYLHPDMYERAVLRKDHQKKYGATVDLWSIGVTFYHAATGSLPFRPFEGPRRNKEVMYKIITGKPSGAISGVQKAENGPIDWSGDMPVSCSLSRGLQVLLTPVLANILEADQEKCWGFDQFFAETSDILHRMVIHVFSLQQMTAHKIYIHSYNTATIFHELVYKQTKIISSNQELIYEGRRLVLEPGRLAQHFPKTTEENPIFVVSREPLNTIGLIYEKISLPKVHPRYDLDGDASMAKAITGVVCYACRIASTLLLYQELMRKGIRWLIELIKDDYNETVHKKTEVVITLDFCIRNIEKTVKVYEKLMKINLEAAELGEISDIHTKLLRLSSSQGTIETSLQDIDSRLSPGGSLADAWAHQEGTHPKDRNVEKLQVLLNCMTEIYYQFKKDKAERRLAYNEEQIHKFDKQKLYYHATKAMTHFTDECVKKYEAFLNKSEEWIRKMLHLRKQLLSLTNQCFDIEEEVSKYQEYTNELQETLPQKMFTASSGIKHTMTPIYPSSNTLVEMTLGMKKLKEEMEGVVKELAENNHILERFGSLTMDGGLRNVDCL
Chain of UniProt Q8TDX7 (whole entry, looked up): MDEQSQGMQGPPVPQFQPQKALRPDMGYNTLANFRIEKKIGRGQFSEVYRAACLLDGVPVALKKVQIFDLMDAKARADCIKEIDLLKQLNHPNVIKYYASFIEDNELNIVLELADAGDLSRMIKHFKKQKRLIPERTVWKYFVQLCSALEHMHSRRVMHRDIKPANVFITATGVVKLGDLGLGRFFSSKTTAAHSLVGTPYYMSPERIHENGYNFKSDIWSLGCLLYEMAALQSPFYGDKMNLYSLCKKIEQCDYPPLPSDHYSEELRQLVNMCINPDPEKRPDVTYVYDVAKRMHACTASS
Chain of UniProt Q02156 (whole entry, looked up): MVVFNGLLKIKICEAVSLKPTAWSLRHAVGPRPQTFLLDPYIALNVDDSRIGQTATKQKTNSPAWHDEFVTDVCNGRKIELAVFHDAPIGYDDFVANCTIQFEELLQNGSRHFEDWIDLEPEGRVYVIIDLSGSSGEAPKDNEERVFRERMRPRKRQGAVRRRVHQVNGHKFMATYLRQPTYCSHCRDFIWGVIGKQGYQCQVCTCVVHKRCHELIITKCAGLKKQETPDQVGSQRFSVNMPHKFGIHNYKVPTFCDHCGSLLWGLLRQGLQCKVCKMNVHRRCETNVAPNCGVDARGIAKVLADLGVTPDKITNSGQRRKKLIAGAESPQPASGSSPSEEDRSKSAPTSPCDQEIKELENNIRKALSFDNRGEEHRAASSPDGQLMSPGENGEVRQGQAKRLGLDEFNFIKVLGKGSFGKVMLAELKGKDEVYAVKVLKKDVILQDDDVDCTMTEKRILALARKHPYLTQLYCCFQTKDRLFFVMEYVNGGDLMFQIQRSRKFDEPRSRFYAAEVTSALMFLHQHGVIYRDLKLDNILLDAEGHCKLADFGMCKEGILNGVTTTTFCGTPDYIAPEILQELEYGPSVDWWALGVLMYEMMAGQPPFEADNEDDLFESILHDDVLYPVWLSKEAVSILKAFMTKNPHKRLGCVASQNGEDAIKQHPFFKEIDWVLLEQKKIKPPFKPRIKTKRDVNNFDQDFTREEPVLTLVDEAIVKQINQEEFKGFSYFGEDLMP

Set 1
SMILES: CCN1/C(=C/C=C2\CCCC(/C=C/C3=[N+](CC)c4ccccc4C3(C)C)=C2NCCCCCCCCN2CCC(Nc3nc4ccccc4n3Cc3ccc(F)cc3)CC2)C(C)(C)c2ccccc21
Cell line: U-87 MG
Tested at: concentration not given
Relative to: DMSO
| assay | log2 fold change |
| --- | --- |
| refers to: TMEM14A mRNA | -1.64 |
| refers to: H2BC21 mRNA | 1.65 |
| refers to: PPP1R2 mRNA | 0.92 |
| refers to: STC1 mRNA | 1.92 |
| refers to: RELB mRNA | 1.6 |
| refers to: SYF2 mRNA | 0.932 |
| refers to: SLC25A18 mRNA | -1.7 |
| refers to: KCND2 mRNA | -3.81 |
| refers to: ZBTB21 mRNA | 1.42 |
| refers to: MEF2D mRNA | 0.871 |
| refers to: ADCY7 mRNA | 1.51 |
| refers to: CSNK2A1 mRNA | 0.929 |
| refers to: LPCAT4 mRNA | -1.2 |
| refers to: PNLIPRP3 mRNA | 3.77 |
| refers to: IRX3 mRNA | -1.46 |
| refers to: BLOC1S1 mRNA | -1.02 |

Set 2
Structure (SMILES): CC[C@@]1(c2ccccc2)C2=C(CC(C)(C)CC2=O)Nc2n[nH]cc21
Tested at: 1 µM
| target | assay | scale | remaining binding |
| --- | --- | --- | --- |
| CLK1 (Homo sapiens, UniProt P49759) | kinase binding, KINOMEscan | relative to: DMSO control | 100% |
| FLT3 (Homo sapiens, UniProt P36888, D835H) | binding, competition with immobilised ligand |  | 100% |
| STK39 (Homo sapiens, UniProt Q9UEW8) | kinase binding, KINOMEscan | relative to: DMSO control | 100% |
| TBK1 (Homo sapiens, UniProt Q9UHD2) | binding, competition with immobilised ligand |  | 98% |
| CDKL2 (Homo sapiens, UniProt Q92772) | binding, competition with immobilised ligand |  | 100% |
| Tyrosine-protein kinase JAK1, JH1 (JAK1, Homo sapiens, UniProt P23458) | binding, competition with immobilised ligand |  | 87% |
| FYN (Homo sapiens, UniProt P06241) | binding, competition with immobilised ligand |  | 100% |
| NEK7 (Homo sapiens, UniProt Q8TDX7) | kinase binding, KINOMEscan | relative to: DMSO control | 100% |
| TIE1 (Homo sapiens, UniProt P35590) | kinase binding, KINOMEscan | relative to: DMSO control | 100% |
| ULK2 (Homo sapiens, UniProt Q8IYT8) | binding, competition with immobilised ligand |  | 100% |
| TTK (Homo sapiens, UniProt P33981) | kinase binding, KINOMEscan | relative to: DMSO control | 100% |
| PRKD1 (Homo sapiens, UniProt Q15139) | binding, competition with immobilised ligand |  | 100% |
| PIK3CB (Homo sapiens, UniProt P42338) | kinase binding, KINOMEscan | relative to: DMSO control | 100% |
| PRKCE (Homo sapiens, UniProt Q02156) | kinase binding, KINOMEscan | relative to: DMSO control | 93% |
| CHUK (Homo sapiens, UniProt O15111) | kinase binding, KINOMEscan | relative to: DMSO control | 100% |

Set 3
Structure (SMILES): C[C@@H]1CN(c2ccc(-c3cc(C(=O)NCCOCCOCCOCCOCCNC(=O)/C=C/c4[nH]cc(C(=O)N[C@@H](CC(N)=O)c5ccc(F)c(Cl)c5)c4-c4ccc(Cl)cc4F)ccc3F)cc2NC(=O)c2c[nH]c(=O)cc2C(F)(F)F)C[C@H](C)N1C
Observed: thermal unfolding
Technique: differential scanning fluorimetry
Tested at: 5.5 µM
Reading: higher = more unfolded
WDR5: WD repeat-containing protein 5 (WDR5, Homo sapiens, UniProt P61964)
DCAF1: DDB1- and CUL4-associated factor 1 (DCAF1, Homo sapiens, UniProt Q9Y4B6)
Chain of UniProt Q9Y4B6 (whole entry, looked up): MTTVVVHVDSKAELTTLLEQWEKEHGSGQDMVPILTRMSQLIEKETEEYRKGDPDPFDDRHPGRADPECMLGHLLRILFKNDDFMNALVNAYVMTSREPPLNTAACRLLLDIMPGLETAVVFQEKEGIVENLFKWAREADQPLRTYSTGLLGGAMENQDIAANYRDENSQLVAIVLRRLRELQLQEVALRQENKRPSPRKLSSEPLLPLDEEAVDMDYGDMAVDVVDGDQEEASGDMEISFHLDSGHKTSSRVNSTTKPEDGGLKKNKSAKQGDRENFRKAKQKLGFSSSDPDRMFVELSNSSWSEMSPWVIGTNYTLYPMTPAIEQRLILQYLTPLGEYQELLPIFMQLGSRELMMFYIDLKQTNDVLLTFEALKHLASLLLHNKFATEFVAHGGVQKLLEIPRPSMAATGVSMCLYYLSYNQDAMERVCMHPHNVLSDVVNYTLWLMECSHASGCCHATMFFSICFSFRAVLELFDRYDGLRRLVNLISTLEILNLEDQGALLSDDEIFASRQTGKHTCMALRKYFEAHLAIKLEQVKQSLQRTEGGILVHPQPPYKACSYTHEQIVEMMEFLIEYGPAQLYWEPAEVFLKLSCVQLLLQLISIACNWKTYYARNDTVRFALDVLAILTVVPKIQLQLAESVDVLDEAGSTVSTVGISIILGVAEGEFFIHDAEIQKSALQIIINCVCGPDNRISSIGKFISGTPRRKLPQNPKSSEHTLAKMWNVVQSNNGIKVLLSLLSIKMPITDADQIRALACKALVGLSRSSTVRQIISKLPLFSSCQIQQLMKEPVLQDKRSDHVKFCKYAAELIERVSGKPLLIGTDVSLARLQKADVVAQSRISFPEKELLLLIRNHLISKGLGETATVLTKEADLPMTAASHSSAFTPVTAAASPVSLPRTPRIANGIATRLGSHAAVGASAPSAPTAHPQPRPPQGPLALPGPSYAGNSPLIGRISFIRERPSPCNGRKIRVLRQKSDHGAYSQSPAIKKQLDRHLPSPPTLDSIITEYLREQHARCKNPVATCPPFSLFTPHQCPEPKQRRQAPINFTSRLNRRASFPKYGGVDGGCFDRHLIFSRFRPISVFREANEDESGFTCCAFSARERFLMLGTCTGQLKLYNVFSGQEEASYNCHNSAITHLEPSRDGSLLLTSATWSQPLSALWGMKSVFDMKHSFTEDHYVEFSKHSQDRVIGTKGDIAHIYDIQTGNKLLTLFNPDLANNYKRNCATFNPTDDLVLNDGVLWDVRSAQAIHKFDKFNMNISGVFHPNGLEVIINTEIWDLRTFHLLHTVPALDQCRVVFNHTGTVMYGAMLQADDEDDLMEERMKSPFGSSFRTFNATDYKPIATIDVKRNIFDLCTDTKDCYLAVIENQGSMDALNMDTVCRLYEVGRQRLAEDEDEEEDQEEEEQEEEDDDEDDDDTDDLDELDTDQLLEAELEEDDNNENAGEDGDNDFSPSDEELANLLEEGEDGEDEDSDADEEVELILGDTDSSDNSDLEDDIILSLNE
| target | setting | SYPRO Orange fluorescence [a.u.] |
| --- | --- | --- |
| WDR5 | 75.81 °C | 27800 |
| WDR5 | 94.61 °C | 45600 |
| WDR5 | 44.6 °C | 15200 |
| WDR5 | 66.01 °C | 14100 |
| WDR5 | 41.6 °C | 14500 |
| DCAF1 | 48 °C | 14300 |
| DCAF1 | 36.2 °C | 10500 |
| WDR5 | 38.8 °C | 14100 |
| WDR5 | 50.2 °C | 16500 |
| DCAF1 | 67.61 °C | 58400 |
| WDR5 | 48.6 °C | 16000 |

Set 4
SMILES: NC/C(=C\F)COc1cc(Cl)cc(-c2cc(=O)[nH]c(=S)n2CC(N)=O)c1
Target: Myeloperoxidase (MPO, Homo sapiens, UniProt P05164)
Chain of UniProt P05164 (whole entry, looked up): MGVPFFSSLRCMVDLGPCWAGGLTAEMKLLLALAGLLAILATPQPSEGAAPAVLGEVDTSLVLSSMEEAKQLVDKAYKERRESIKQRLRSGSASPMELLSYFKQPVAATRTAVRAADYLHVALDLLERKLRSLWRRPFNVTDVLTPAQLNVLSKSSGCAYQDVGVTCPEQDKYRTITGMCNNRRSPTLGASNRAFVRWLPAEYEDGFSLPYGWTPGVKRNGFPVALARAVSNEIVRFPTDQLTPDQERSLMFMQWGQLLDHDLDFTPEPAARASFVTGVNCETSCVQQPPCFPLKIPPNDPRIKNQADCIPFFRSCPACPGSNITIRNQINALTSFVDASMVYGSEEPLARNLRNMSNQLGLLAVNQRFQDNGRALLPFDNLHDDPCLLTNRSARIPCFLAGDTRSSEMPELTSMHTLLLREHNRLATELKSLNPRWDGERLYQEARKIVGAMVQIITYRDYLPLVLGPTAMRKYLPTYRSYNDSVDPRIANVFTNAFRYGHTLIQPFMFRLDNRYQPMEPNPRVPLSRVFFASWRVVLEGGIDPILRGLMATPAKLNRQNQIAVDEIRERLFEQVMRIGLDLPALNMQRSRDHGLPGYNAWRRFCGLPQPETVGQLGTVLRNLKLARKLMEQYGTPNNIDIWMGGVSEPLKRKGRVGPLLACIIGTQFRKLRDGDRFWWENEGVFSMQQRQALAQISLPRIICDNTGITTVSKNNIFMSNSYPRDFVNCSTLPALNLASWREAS
Observed: enzyme activity
Action: inhibitor
Technique: fluorescence
| setting | inhibition |
| --- | --- |
| 1.5 nM | 2.4% |
| 10 µM | 95.6% |
| 300 pM | -8.41% and -2.46% |
| 4.6 nM | -3.63% |
| 41.2 nM | 14.6% |
| 1.111 µM | 81.1% |
| 13.7 nM | 2.79% |
| 61.7 nM | 5.48% and 13.7% |

Some of these lines once more (set 2):
| target | assay | scale | remaining binding |
| --- | --- | --- | --- |
| NEK7 (Homo sapiens, UniProt Q8TDX7) | kinase binding, KINOMEscan | relative to: DMSO control | 100% |
| Tyrosine-protein kinase JAK1, JH1 (JAK1, Homo sapiens, UniProt P23458) | binding, competition with immobilised ligand |  | 87% |
| TIE1 (Homo sapiens, UniProt P35590) | kinase binding, KINOMEscan | relative to: DMSO control | 100% |
